Results from different studies.
Numbered parts are unrelated; each lists some results of a single study. Changes are numbered by the printed parent chain.
Sequence of UniProt Q15835 (whole entry, looked up): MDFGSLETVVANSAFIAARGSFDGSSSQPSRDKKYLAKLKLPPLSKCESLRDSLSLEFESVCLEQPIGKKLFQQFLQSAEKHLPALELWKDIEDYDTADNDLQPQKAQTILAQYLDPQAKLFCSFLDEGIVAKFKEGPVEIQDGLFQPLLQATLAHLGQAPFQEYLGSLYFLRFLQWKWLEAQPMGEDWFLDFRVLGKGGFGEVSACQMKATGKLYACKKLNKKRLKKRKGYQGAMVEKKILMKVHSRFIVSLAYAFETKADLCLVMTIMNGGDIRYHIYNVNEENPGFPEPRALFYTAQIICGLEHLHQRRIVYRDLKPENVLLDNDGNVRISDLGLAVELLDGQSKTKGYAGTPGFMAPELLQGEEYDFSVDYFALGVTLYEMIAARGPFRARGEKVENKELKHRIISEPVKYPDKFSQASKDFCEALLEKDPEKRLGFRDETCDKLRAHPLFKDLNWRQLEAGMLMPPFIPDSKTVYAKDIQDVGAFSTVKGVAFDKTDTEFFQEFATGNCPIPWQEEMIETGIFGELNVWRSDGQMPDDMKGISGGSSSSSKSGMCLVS

Series 1 — effect on: binding; method: phage display NGS; form: peptide; concentration: concentration not given; baseline: input library; measurement: enrichment fold change
Target: UDP-N-acetylglucosamine--peptide N-acetylglucosaminyltransferase 110 kDa subunit (OGT, Homo sapiens, UniProt O15294)
Sequence of UniProt O15294 (whole entry, looked up): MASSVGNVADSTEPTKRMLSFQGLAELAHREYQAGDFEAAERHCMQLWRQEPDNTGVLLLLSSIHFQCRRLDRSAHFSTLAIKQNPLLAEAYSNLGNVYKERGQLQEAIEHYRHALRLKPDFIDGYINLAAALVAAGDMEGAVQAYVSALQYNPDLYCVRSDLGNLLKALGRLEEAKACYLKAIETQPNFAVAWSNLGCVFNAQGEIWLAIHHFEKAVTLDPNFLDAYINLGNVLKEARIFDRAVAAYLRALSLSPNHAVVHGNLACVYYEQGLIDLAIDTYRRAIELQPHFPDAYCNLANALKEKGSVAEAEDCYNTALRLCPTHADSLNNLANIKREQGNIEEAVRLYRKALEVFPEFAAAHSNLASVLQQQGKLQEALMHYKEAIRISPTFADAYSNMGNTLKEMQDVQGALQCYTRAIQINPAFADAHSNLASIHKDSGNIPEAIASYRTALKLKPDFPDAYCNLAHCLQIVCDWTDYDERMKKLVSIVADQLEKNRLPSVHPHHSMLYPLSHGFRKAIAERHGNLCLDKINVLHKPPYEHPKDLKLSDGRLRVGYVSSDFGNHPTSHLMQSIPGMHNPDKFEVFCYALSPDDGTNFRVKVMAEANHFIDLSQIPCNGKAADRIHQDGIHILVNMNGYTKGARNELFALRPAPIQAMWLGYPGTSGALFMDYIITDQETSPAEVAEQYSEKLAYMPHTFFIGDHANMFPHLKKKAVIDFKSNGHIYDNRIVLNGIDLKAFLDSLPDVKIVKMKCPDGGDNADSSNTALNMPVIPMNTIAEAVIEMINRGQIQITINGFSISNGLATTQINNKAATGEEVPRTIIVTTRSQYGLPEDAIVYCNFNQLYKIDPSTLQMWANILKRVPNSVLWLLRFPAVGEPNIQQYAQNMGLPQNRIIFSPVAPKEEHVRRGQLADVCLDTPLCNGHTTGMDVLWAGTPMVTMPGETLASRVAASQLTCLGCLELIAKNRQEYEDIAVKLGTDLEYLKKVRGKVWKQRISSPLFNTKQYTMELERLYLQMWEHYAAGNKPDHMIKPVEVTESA
HVFHHDVVRDYHNMH: 5.75
TAPFYPPAYFI: 1.38
NEQQIFPPIYIIQHP: 3.31
HVQNGHTHKIHAHEV: 4.23
QMNYIHWWIQKDHK: 2.28

Series 2 — target: vanadate, free oxyanion; method: microfluidic competitive inhibition; medium: in vitro, cell-free expressed; concentration: not given; reading: lower = stronger binding; measurement: oxyanion analog dissociation constant
Notes: derived from inhibition constants, unchanged parent 676 nM
Parent: PafA, mature enzyme, eGFP fusion (Elizabethkingia meningoseptica, UniProt Q9KJX5); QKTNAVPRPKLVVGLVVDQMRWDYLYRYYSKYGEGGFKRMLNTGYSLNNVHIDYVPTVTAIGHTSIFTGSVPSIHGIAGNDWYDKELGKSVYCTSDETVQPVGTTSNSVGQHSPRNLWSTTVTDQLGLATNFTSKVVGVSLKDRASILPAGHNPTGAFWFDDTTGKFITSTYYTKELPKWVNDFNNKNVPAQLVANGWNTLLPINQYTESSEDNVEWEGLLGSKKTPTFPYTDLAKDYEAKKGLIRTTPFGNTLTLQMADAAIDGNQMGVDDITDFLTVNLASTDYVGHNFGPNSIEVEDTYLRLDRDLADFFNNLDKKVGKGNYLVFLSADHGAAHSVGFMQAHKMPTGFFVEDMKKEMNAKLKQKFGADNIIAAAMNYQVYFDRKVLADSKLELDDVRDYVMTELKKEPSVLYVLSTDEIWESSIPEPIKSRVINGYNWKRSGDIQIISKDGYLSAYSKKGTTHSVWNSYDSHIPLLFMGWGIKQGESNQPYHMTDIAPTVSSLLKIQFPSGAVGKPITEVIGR
K10G: 758 nM
Q343V: 764 nM
T301G: 544 nM
H495G: 548 nM
E239G: 621 nM
H75G: 457 nM
K89G: 813 nM
S134V: 627 nM

Series 3 — target: CCNA2, cyclin fold, Cln2 fusion (human); method: yeast growth competition, sequencing; medium: yeast; notes: strong parent motif; baseline: not given; reading: higher = stronger binding; measurement: normalised enrichment score
Parent: viral docking peptide; TSVRRALFTGGSD; partner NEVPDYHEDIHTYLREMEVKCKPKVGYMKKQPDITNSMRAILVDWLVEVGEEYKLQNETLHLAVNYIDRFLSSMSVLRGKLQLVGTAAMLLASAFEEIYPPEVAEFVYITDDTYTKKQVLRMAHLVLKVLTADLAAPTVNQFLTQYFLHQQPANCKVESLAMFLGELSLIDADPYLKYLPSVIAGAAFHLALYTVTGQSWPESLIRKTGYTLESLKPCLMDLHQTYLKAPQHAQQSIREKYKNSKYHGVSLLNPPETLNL
G10V: 5.92
A6T: 5.1
R5I: 2.38
L7S: -0.49
A6V: 5.44
R5E: -0.195
L7T: 0.375
F8W: 4.28

Further values, each from its own experiment
CNC(=O)c1ccc(-c2cnn3ccc(C(=O)N(C)c4ccc(Cl)c(C(=O)OC)c4)cc23)cc1 — IC50 (Rhodopsin kinase GRK1 (GRK1, Homo sapiens, UniProt Q15835); enzyme activity, inhibitor): > 30 µM

Some of these lines once more (series 3):
R5E: -0.195
L7T: 0.375
